Measured values collected from several papers.
Protocols differ between the studies behind these lines. Changes are numbered by the printed parent chain.
MFN2 near-full-length del605-647: MFN2 near-full-length del605-647, (SAA)5 linker replacing 605-647 (Homo sapiens)
P1: CVP-214; VVPGLKPFV
Sequence of UniProt P15976 (whole entry, looked up): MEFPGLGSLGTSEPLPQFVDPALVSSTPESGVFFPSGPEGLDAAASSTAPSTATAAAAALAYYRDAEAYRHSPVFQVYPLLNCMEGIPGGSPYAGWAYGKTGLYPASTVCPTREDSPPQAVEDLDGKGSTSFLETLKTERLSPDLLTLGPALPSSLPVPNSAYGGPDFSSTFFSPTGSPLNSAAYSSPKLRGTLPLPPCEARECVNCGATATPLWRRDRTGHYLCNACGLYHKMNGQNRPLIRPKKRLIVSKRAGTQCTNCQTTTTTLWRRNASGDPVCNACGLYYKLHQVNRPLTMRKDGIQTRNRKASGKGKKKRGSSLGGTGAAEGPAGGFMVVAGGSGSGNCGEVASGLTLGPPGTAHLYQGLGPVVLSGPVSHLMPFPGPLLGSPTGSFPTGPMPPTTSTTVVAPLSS
Sequence of UniProt Q0JQF7 (whole entry, looked up): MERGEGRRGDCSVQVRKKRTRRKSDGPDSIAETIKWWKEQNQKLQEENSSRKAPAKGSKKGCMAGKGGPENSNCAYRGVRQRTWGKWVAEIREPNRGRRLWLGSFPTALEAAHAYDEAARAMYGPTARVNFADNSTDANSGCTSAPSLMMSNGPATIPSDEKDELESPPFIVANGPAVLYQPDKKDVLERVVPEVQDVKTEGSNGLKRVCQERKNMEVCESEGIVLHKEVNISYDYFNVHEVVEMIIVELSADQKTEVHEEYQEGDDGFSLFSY
Sequence of UniProt Q9BRJ7 (whole entry, looked up): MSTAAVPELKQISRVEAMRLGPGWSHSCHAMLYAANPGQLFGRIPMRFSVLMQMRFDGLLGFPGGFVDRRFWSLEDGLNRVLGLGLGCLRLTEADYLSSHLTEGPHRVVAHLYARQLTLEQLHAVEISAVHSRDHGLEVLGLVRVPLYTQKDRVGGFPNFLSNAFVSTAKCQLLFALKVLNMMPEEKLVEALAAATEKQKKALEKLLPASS

Molecule | target or system | test | test system | conditions | scale | measurement | result
CCAGGCAGATAAGGAACAAC (ssDNA) | GATA1 200-311 (Homo sapiens, UniProt P15976) | fluorescence anisotropy | single-stranded DNA |  |  | Kd | < 11 µM
GCCGACGCCGACGCCGACGCCGACGCCGAC (dsDNA) | DREB2A 1-274 (Oryza sativa, UniProt Q0JQF7) | EMSA | double-stranded DNA, one strand shown |  |  | binding | binds
P1 P7A | MFN2 near-full-length del605-647 | field-effect biosensing |  |  |  | Kd | 1290 µM
UGGUACUGGGAGGGAUGAGGGUGAAGAAGGGGAGAGGGUUGG (ssRNA) | NUDT16L1 full length assumed (Homo sapiens, UniProt Q9BRJ7) | fluorescence polarization | RNA |  |  | Kd | 0.35 µM
P1 F8A | MFN2 near-full-length del605-647 | field-effect biosensing |  |  |  | Kd | 14000 µM
insulin icodec |  |  | human severe hepatic impairment (Child-Pugh C), serum | subcutaneous, 1.5 U/kg single dose | relative to: severe impairment over normal function | AUC(0-inf) ratio | 0.97

Repeated from above:
Molecule | target or system | test | test system | conditions | scale | measurement | result
CCAGGCAGATAAGGAACAAC (ssDNA) | GATA1 200-311 (Homo sapiens, UniProt P15976) | fluorescence anisotropy | single-stranded DNA |  |  | Kd | < 11 µM
